Measured values of several laboratories.
Protocols differ between the studies behind these lines. ± marks the error that the study gave.
U2AF2: U2AF2 148-342 (Homo sapiens, UniProt P26368)
Chain of UniProt P26368 (whole entry, looked up): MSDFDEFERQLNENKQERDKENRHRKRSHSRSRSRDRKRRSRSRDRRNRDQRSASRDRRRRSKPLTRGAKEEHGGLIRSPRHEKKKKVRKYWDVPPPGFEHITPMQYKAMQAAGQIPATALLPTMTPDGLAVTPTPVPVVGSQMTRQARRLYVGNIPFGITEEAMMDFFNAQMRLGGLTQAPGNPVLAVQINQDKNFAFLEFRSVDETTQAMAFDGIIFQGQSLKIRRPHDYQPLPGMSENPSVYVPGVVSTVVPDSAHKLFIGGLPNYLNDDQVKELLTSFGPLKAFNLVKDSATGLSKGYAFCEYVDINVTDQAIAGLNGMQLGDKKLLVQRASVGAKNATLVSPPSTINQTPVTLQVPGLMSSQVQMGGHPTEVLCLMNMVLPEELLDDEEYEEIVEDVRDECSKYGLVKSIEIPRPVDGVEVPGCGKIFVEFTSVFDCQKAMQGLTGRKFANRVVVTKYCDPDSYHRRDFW
B1: aspC A106G/A17N/A218G/A278L/A281T/A8Q/D18E/F210I/F212I/F350Y/G15S/G249S/I187A/I279A/I29V/I33V/I341V/I5L/I68L/I71L/L46M/M321L/M380L/N285S/N30D/N64T/S129T/S135A/S273G/S351L/T100S/V125I/V136I/V375I/Y244C (Escherichia coli, UniProt P00509); chain MFENLTAQPADPILSLNELFRADERPGKVDLGVGVYKDETGKTPVMTSVKKAEQYLLENETTKTYLGLDGLPEFGRCTQELLFGKGSALINDKRARTAQSPGGTGGLRVAADFLAKNTSVKRVWISNPTWPNHKAIFNSAGLEVREYAYYDAENHTLDFDALINSLNEAQAGDVVLFHGCCHNPTGADPTLEQWQTLAQLSVEKGWLPLIDIAYQGFGRGLEEDAEGLRAFAAMHKELIVASSCSKNFSLYNERVGACTLVAADSETVDRAFGQMKALARTNYSSPPAHGASVVATILSNDALRAIWEQELTDMRQRIQRLRQLFVNTLQEKGANRDFSFVIKQNGMFSYLGLTKEQVLRLREEFGVYAVASGRINVAGLTPDNMAPLCEAIVAVL
B2: human lamin B2; sequence looked up; chain MSPPSPGRRREQRRPRAAATMATPLPGRAGGPATPLSPTRLSRLQEKEELRELNDRLAHYIDRVRALELENDRLLLKISEKEEVTTREVSGIKALYESELADARRVLDETARERARLQIEIGKLRAELDEVNKSAKKREGELTVAQGRVKDLESLFHRSEVELAAALSDKRGLESDVAELRAQLAKAEDGHAVAKKQLEKETLMRVDLENRCQSLQEELDFRKSVFEEEVRETRRRHERRLVEVDSSRQQEYDFKMAQALEELRSQHDEQVRLYKLELEQTYQAKLDSAKLSSDQNDKAASAAREELKEARMRLESLSYQLSGLQKQASAAEDRIRELEEAMAGERDKFRKMLDAKEQEMTEMRDVMQQQLAEYQELLDVKLALDMEINAYRKLLEGEEERLKLSPSPSSRVTVSRATSSSSGSLSATGRLGRSKRKRLEVEEPLGSGPSVLGTGTGGSGGFHLAQQASASGSVSIEEIDLEGKFVQLKNNSDKDQSLGNWRIKRQVLEGEEIAYKFTPKYILRAGQMVTVWAAGAGVAHSPPSTLVWKGQSSWGTGESFRTVLVNADGEEVAMRTVKKSSVMRENENGEEEEEEAEFGEEDLFHQQGDPRTTSRGC
B3: enzyme (Salinispora arenicola, UniProt A8M783); chain MASTPWISFTTDYGLADGFVAACHGVLARLAPTARVIDVTHLVPPGDVRRGAAVLAQTVPYLPAAVHVAVVDPGVGTARRAIALTAGNGLLVGPDNGLLLDAATALGGVDAAVELTNPDWLGARMSATFHGRDVFAPVAARLALGAPLADAGPAVEPGALVRLPTPLVQPETDGFTAEVLTVDHFGNVQLAATGALLESLPRSLRVAHRPAVHARTFDDAPPGGLLVHVDSAGLVAVAVNGGRAADLLAVTPGDQLRVTAG
B4: enzyme S252E/S281E/S285E/S287E (Schizosaccharomyces pombe, UniProt P78804); chain MSTPYEPEFQQAYKEIVGSIESSKLFEVHPELKRVLPIISIPERVLEFRVTWEDDKGNCRVNTGYRVQFNSALGPYKGGLRFHPSVNLSILKFLGFEQIFKNALTGLPMGGGKGGSDFDPKGKSDNEIRRFSQAFMRQLFRYIGPQTDVPAGDIGVTGFVVMHMFGEYKRLRNEYSGVVTGKHMLTGGSNIRPEATGYGVVYYVKHMIEHRTKGAETLKGKRVAISGSGNVAQYAALKCIQEGAIVKSISDEKGVLIAKTAEGLVPEEIHEIMALKEKRAEIADEAELCKKHHYIAGARPWTNVGEIDIALPCATQNEVSGEEAAALIKQGCRYVAEGSNMGSSAEAVEVFEKSRASGEGCWLAPGKAANAGGVAVSGLEMAQNAQFSTWTHAEVDAKLAGIMQNIFEQSTDVASKYCDSGSNNIPSLVDGANIAGFLKVATAMQAVGDWW
B5: CYP4F3 A27G/C46R/I34V/M14V/R49Q/W12G (Homo sapiens, UniProt Q08477); chain MALLLAVFLLGPVAASPWLLLLLVGGSWLLARVLAWTYTFYDNCRRLQCFPQPPKRNWFLGHLGLIHSSEEGLLYTQSLACTFGDMCCWWVGPWHAIVRIFHPTYIKPVLFAPAAIVPKDKVFYSFLKPWLGDGLLLSAGEKWSRHRRMLTPAFHFNILKPYMKIFNESVNIMHAKWQLLASEGSARLDMFEHISLMTLDSLQKCVFSFDSHCQEKPSEYIAAILELSALVTKRHQQILLYIDFLYYLTPDGQRFRRACRLVHDFTDAVIQERRRTLPSQGVDDFLQAKAKSKTLDFIDVLLLSKDEDGKKLSDEDIRAEADTFMFEGHDTTASGLSWVLYHLAKHPEYQERCRQEVQELLKDREPKEIEWDDLAQLPFLTMCIKESLRLHPPVPAVSRCCTQDIVLPDGRVIPKGIICLISVFGTHHNPAVWPDPEVYDPFRFDPKNIKERSPLAFIPFSAGPRNCIGQAFAMAEMKVVLGLTLLRFRVLPDHTEPRRKPELVLRAEGGLWLRVEPLS
B6: SCO6712 S292F/V290N (Streptomyces coelicolor, UniProt Q9XAL8); chain AKGITARTAPAGGEVRHLKMYAEKLADGQMGYGFEKGKASVPGPLIEVNEGDTLHIEFTNTMDVRASLHVHGLDYEISSDGTAMNKSDVEPGGTRTYTWRTHKPGRRDDGTWRPGSAGYWHYHDHVVGTEHGTGGIRNGLYGPVIVRRKGDVLPDATHTIVFNDMTINNRKPHTGPDFEATVGDRVEIVMITHGEYYHTFHMHGHRWADNRTGILTGPDDPSRVIDNKITGPADSFGFQIIAGEGVGAGAWMYHCHNQFHSDMGMVGLFLVKKPDGTIPGYEPHEHGGATAKSGESGEPTGGAAAHEHEH
Chain of UniProt Q96C36 (whole entry, unmodified, looked up): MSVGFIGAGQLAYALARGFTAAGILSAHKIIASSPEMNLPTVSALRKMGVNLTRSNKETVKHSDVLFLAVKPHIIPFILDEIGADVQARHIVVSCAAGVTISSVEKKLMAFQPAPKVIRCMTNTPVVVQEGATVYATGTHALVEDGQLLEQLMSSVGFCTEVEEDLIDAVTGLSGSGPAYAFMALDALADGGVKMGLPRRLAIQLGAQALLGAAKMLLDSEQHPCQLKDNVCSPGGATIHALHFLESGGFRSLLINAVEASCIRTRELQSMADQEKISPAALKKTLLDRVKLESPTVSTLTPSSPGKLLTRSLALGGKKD
Chain of UniProt P09546 (whole entry, looked up): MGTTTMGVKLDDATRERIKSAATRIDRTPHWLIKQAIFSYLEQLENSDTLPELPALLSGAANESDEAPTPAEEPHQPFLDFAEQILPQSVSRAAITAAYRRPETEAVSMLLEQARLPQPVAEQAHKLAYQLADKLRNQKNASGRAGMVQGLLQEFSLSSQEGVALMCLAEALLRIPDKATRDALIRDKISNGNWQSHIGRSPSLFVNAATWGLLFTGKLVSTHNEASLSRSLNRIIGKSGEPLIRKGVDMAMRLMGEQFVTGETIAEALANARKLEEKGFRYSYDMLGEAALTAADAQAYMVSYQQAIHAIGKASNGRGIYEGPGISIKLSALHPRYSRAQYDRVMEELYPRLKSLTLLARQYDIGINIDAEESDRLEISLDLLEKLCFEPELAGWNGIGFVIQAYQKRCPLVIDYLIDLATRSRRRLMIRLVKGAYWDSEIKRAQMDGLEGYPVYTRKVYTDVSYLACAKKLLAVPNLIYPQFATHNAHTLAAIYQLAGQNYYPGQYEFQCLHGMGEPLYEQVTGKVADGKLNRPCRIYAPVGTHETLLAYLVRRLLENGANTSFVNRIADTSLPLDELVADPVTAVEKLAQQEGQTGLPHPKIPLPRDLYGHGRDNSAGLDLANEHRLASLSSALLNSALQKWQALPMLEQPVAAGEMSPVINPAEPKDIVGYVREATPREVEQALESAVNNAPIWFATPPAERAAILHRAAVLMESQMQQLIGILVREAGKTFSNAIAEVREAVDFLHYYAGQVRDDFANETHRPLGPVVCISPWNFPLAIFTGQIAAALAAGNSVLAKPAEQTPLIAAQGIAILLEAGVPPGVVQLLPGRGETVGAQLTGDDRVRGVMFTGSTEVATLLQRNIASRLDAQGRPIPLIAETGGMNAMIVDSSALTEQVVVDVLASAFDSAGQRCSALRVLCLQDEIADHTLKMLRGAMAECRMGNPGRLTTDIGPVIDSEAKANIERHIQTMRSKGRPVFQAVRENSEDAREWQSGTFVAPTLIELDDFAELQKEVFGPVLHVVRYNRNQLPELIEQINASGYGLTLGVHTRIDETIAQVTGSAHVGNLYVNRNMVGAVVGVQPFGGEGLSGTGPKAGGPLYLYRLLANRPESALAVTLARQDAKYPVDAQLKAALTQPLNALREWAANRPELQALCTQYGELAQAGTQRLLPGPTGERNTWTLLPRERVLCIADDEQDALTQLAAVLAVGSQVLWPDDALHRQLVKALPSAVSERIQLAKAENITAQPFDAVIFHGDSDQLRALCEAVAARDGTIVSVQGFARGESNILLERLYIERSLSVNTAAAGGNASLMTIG

enzyme (Bacteroides ovatus, UniProt A0AAN3A6N4) — kcat/Km (O=[N+]([O-])c1ccc(O[C@H]2O[C@H](CO)[C@@H](O)[C@H](O)[C@H]2O)cc1; steady-state kinetics; pH 6.6): 276000 M⁻¹ s⁻¹
acsA (Pseudomonas chlororaphis, UniProt Q5CD72) — kcat/Km (CC(C)CC(=O)O; steady-state kinetics; pH 7): 13.3 ± 1.67 M⁻¹ s⁻¹
B1 — kcat/Km (N[C@@H](CC(=O)O)C(=O)O; steady-state kinetics; pH 7.5, 25 °C, together with: PMP 20 µM): 150 M⁻¹ s⁻¹
B2 (human lamin B2) — log2 fold change (CYB5R4 knockout human cells; PP6 interaction, 3xFLAG-PP6C IP-MS; concentration not given; reference: CYB5R4 KO over parental): -0.42
putA (Escherichia coli, UniProt P09546) — kcat/Km (COC1=C(OC)C(=O)C(C/C=C(\C)CCC=C(C)C)=C(C)C1=O; steady-state kinetics; pH 7.4, 20 °C, together with: proline 200 mM): 87000 ± 23000 M⁻¹ s⁻¹
enzyme (Saccharina japonica, UniProt A0A097IUE3) — kcat/Km (C=C(OP(=O)(O)O)C(=O)O; steady-state kinetics; pH 6.5, 25 °C, together with: 2 mM ADP): 21000 M⁻¹ s⁻¹
human FABP5 — log2 fold change (CYB5R4 knockout human cells; PP4 interaction, 3xFLAG-PP4C IP-MS; concentration not given; reference: CYB5R4 KO over parental): 4.59
B3 (enzyme) — kcat/Km (C[S+](CC[C@H](N)C(=O)O)C[C@H]1O[C@@H](n2cnc3c(N)ncnc32)[C@H](O)[C@@H]1O; steady-state kinetics; pH 7.9, 37 °C, apparent, together with: 1-200 µM SAM): 7500 M⁻¹ s⁻¹
HNL E79H/K236M/T11G (Hevea brasiliensis) — kcat/Km (CC(=O)Oc1ccc([N+](=O)[O-])cc1; steady-state kinetics; pH 7.2, 22 °C): 7.67 M⁻¹ s⁻¹
CUGCAAUUUUUUUUUUUUUAUUUUUCAUUUCCAGUA (ssRNA) — Kd (U2AF2; MST; RNA): 5.34 ± 1.61 µM
B4 (enzyme S252E/S281E/S285E/S287E) — kcat/Km (NC(=O)c1ccc[n+]([C@@H]2O[C@H](COP(=O)(O)OP(=O)(O)OC[C@H]3O[C@@H](n4cnc5c(N)ncnc54)[C@H](O)[C@@H]3O)[C@@H](O)[C@H]2O)c1; steady-state kinetics; pH 7, 30 °C, apparent): 120 ± 10 M⁻¹ s⁻¹
UAUUAAUUU (ssRNA) — Kd (U2AF2; sequencing of bound RNA; RNA; motif only): 3.15 µM
enzyme (Bacteroides fragilis, UniProt Q5LAD6) — kcat/Km (C[C@@H]1O[C@@H](Oc2ccc([N+](=O)[O-])cc2Cl)[C@@H](O)[C@H](O)[C@@H]1O; steady-state kinetics; pH 8.4, 40 °C): 243000 M⁻¹ s⁻¹
B5 — kcat/Km (CCCCC/C=C\C[C@@H](O)/C=C/C=C/C=C\[C@@H](O)CCCC(=O)O; steady-state kinetics; pH 7.4): 100 M⁻¹ s⁻¹
B6 (SCO6712 S292F/V290N) — kcat/Km (CCn1c(=NN=c2sc3cc(S(=O)(=O)O)ccc3n2CC)sc2cc(S(=O)(=O)O)ccc21; steady-state kinetics; pH 7, 37 °C, NaCl 150 mM, together with: O2 cosubstrate): 2000 ± 200 M⁻¹ s⁻¹
enzyme (Pseudanabaena biceps, UniProt L8N0N6) — kcat/Km (NC(=O)c1ccc[n+]([C@@H]2O[C@H](COP(=O)(O)O)[C@@H](O)[C@H]2O)c1; steady-state kinetics; pH 7.4, 30 °C, apparent, cofactor varied): 290 ± 10 M⁻¹ s⁻¹
enzyme (UniProt F0RRL2) — kcat/Km (O=P(O)(O)O[C@H]1O[C@H](CO)[C@@H](O)[C@H](O)[C@H]1O; steady-state kinetics; pH 5.5, 37 °C, apparent): 700 M⁻¹ s⁻¹
PYCR2 (Homo sapiens, UniProt Q96C36) — kcat/Km (NC(=O)C1=CN([C@@H]2O[C@H](COP(=O)(O)OP(=O)(O)OC[C@H]3O[C@@H](n4cnc5c(N)ncnc54)[C@H](O)[C@@H]3O)[C@@H](O)[C@H]2O)C=CC1; steady-state kinetics; pH 7.5, 37 °C, apparent, cofactor varied, together with: DL-P5C 5000 µM): 161000 ± 44000 M⁻¹ s⁻¹
